# Measurements from different studies.
# A part holds a random share of what one study measured.

# Set 1 — method: universal PBM; molecule type: double-stranded DNA, one strand shown; sample: in vitro; tested at: not given; direction: higher = stronger binding
# Target: Sal-like protein 4, full length isoform B (SALL4, Homo sapiens, UniProt Q9UJQ4-2, residues 1-616)
# Notes: 8-mer, flanks averaged, mean of replicates
# Target sequence (chain): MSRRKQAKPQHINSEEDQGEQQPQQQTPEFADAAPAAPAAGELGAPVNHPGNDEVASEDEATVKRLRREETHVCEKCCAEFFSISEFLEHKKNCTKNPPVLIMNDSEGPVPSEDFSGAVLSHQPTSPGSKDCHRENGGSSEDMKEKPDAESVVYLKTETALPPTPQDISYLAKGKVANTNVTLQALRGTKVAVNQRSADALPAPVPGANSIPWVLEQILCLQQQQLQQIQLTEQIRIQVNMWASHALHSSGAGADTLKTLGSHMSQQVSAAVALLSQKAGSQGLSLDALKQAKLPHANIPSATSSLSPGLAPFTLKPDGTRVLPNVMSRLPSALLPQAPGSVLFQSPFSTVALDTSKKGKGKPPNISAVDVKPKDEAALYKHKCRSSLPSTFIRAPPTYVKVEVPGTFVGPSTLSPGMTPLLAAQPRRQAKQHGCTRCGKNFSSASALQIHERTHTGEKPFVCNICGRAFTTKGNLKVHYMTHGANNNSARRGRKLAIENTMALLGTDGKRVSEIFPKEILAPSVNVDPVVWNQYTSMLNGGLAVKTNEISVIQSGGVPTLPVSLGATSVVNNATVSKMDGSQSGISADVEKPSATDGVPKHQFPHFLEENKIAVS
Sequence,E-score
ATCTTTAA,0.225
AGTTCTGC,-0.0601
GATATCGC,0.115
ACCCACAA,0.0163
CACATTAG,0.0615
ATGCCATG,0.0713
GGCCGTAA,-0.183
ACTAAGGA,0.00724
CTCCGAAA,0.0719
ACAGACAT,0.199
CGTCTATC,0.0624
AACGCTGT,0.0207
AACAATCC,0.161
TAGTAAAA,0.318
CTCCGAAC,-0.268
AGCTGAAG,-0.0998
CGACGTCC,-0.299
ACTACGGA,-0.0472
AGCCGCAT,-0.15
ATCGTACC,-0.151
AAATAGAG,0.193
CGTCATCC,-0.168
TGCACCCA,-0.128
GGGGCTTA,-0.204
CTGTCCGA,-0.137

# Set 2 — method: protein binding microarray; molecule type: double-stranded DNA, one strand shown; sample: in vitro; tested at: not given; relative to: not given; direction: higher = stronger binding
# Target: Histone acetyltransferase KAT6A, both winged helices, GST fusion (KAT6A, Homo sapiens, UniProt Q92794, residues 1-181)
# Notes: 8-mer, flanks averaged, mean of 2 arrays, mostly near background
# Target sequence (chain): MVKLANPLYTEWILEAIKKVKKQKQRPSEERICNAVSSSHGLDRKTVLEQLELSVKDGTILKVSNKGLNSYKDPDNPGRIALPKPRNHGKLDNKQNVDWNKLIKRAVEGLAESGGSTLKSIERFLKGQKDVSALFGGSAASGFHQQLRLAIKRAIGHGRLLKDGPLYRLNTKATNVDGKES
Sequence,E-score
AGCGGCTG,0.247
CGAGTCTA,0.0475
TAAATACA,0.0336
AAACAGGT,-0.128
GGACAAGA,0.0399
CCGGTAAA,0.278
AGAGGTCG,-0.0227
ACTTTAAT,-0.197
GAATACTC,-0.0299
AGTGCGTC,0.0815
AACTTGGC,-0.209
GGCCAGGA,-0.0876
ATTTTTGA,-0.107
CAATGTTC,0.104
AGTAGAAG,-0.197
CAGCTGAA,-0.103
ACTGCCAC,-0.196
TGATCCAA,-0.13
CTTCGACC,-0.103
AAGTTTAT,-0.0107
CTCTTGAA,-0.157
CTCCCGAG,-0.0658
GCTGAAAA,0.0202
GTCACTGA,-0.0492
CCTGATAA,-0.122

# Set 3 — method: protein-binding microarray; molecule type: double-stranded DNA, one strand shown; sample: in vitro; tested at: 2200 nM top; notes: 60-bp whole probe; added: salmon DNA 0.4 mg/ml; relative to: random background probes; direction: higher = stronger binding; all sequences stand within: GCCTAGCAC … GTCTTGATTCGCTTGACGCTGCTG
# Target: Interferon regulatory factor 7, full length, phosphomimetic (IRF7, Homo sapiens, UniProt Q92985, residues 1-503, S471D/S472D/S475D/S476D/S477D/S483D/S484D/S487D)
# UniProt Q92985, sequence (whole entry, unmodified, looked up): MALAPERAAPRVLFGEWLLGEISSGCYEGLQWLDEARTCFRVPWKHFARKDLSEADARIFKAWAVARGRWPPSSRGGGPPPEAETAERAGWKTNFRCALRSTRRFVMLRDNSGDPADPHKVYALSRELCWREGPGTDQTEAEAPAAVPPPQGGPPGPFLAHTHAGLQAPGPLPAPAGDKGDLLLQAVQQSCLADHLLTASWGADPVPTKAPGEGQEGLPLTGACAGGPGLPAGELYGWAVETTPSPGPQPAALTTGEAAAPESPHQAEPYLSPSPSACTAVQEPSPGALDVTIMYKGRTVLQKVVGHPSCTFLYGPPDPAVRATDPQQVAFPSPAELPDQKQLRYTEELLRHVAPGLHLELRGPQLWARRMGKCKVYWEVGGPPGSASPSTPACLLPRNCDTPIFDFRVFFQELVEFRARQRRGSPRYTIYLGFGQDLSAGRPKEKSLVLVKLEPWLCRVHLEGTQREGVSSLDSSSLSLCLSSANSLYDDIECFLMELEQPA
Sequence,fitted relative affinity [z-score]
TTAGGTATCCTACTGGTTTAGTGCTAG,0.392
TTCGGACTGCTTATCCTTTAGTGCTAG,1.09
GACGATATCGGGGATCGAGACGTGCTA,-0.0324
TCAAATTTCCCACTTTCACTGTGCTAG,3.47
TTCCTTTACTTTCTTTTTTTGTGCTAG,5.35
TTAGGACTGCTTAGCCTTTAGTGCTAG,-0.624
CCCAATTGTCTTTTCACTTTGTGCTAG,3.32
TTAGGTATCGTTTTCCTTTAGTGCTAG,3.41
TTAGGACTGGACACTGGCTTAGTGCTA,-0.692
TGAAGAATGCCTTTAATAAGGTGCTAG,-1.04
GACGGTTTCCGGTATCGGGACGTGCTA,2.61
GACGGTTCCCTTTTCCTCACGTGCTAG,2.8
GACGGTTTCGGGCTGGGGACGTGCTAG,3.47
AAGTGTATATACTATATGCATGTGCTA,0.0291
TGAGGTATCGGTATCGGTTAGTGCTAG,0.6
TTAGGTATCCATTTCCTTTAGTGCTAG,1.65
GACGGTTTCCACACTGGGGACGTGCTA,1.25
TTAGGAGTGGGTCTCGGTTAGTGCTAG,-0.303
CTAATATTCATTTTATTCAAGTGCTAG,1.21

# Set 4 — method: RNA Bind-n-Seq; molecule type: RNA; sample: in vitro; tested at: 365 nM; relative to: no-protein control; direction: higher = stronger binding
# Target: RNA binding protein fox-1 homolog 2, RRM domain, GST-SBP tag (RBFOX2, Homo sapiens, UniProt O43251-10, residues 100-194)
# Notes: natural RNA segment, single round, ends assumed
# All sequences stand within: GGGAGUUCUACAGUCCGACGAUC … UGGAAUUCUCGGGUGCCAA
# Target sequence (chain): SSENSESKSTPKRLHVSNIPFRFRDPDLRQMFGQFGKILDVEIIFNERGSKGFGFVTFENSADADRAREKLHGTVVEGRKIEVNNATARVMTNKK
Sequence,RBNS enrichment (R)
UUAAAAAAUAUUCUGUUACACUACAGAUACCAAAACACUGACAAAGAUUUAGGCACUCCAAGAGAGUAUGACUUCGUGUUUAAUUGGGGAGCUUGUUUUCAACAUUGCUU,0.395
AACUCAGCCUCAAAUCUCAACUGUCAGGCCCUACAAAGAAAAUGGAGAGCCUCUUCUGGUGGAUGCUUUGCUCCCUCUGAGCUGCCCAUGCUGGUCUGGCAAACACACCU,0.192
AGAAUGAGCCGAUAUUGGCUUAGUGCUCACUAGGGGACAUGCACAUGGAAGCUCACCUCUAAGAAAGGGCUGGGCAGAUGGAUUUAUUUUUUCCCACCUGUGAAUAUGUA,2.57
GUUUUCAAACACAAUCUGAAAUCUGUUAGUAAAAUGAAUUCUGGGUAAAAAUGAGACUCAAGAGGCAUCACUGGCCAUUGUACCAGAUUAUUCCUGCUCGCCAGUGAGAG,0.439
CAAGUGCGAUGGUGUUGCCUUUCCAUGGGAUAUUGCAUUUUCUUACACUACCCGAGAUGUCCAGACGUGCUUGGUAGGAGGCUACUCCCUAGGUGCUGCCUUUCUAAGUU,4.05
AAGUUUUGAAAUGCUGCACUUACAUUUAAAAAAAAACAUUUUUCAACAAUUUCAACAAUGACACAAAAAUUCACAUGGAAAUGGGGAAGAUGGUCUGUUUUGACAGAAAC,0.74
CGACUUUGGACAGAGUAAUGACUCCCCAGAAAACGUCAUAUAAGACUUUACCAGCCCCUGAGAGGACCAGGAGGAGCAUCCUUGACCUUCAUUUAACUUGGCUCACUUCU,0.384
UAGAGAGUAGGUACCCAGGAGUGGAGAUGGAAGGAGUCUGAACUUUCCUGUGGCCAUGCUGACUUACACUAAGAUUCUACCCCAGAAAACAAUUCUUUAGCAGUGGACAG,0.455

# Some of these lines once more (set 2):
Sequence,E-score
TGATCCAA,-0.13
CTTCGACC,-0.103
AAGTTTAT,-0.0107
CTCTTGAA,-0.157
CTCCCGAG,-0.0658
GCTGAAAA,0.0202
GTCACTGA,-0.0492
